Results pooled from the literature.
Each line is one published result; not all experiments were run side by side. ± marks the error that the study gave. In brackets after ≈: the same amount, converted by molar mass.
OPRK1: Kappa-type opioid receptor (OPRK1, Homo sapiens, UniProt P41145)

Protein sequences, listed by entry. Tags and fused reporters are not part of them. Chains listed by the source or under a name are the forms on record and can include a tag or linker. Residues count along the entry.
UniProt P41145, whole entry: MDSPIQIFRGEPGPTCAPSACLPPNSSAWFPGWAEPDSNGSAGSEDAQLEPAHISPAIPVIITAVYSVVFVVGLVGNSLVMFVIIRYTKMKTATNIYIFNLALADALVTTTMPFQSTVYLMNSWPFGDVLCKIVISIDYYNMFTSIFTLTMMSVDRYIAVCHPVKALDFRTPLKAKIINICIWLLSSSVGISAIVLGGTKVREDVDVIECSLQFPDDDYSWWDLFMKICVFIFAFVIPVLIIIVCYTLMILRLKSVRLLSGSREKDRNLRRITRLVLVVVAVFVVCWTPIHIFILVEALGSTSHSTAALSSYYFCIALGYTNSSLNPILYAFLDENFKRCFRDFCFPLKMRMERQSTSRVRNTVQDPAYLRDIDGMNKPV
UniProt P37231, 176-477 with tags or gaps isoform 2 limits assumed: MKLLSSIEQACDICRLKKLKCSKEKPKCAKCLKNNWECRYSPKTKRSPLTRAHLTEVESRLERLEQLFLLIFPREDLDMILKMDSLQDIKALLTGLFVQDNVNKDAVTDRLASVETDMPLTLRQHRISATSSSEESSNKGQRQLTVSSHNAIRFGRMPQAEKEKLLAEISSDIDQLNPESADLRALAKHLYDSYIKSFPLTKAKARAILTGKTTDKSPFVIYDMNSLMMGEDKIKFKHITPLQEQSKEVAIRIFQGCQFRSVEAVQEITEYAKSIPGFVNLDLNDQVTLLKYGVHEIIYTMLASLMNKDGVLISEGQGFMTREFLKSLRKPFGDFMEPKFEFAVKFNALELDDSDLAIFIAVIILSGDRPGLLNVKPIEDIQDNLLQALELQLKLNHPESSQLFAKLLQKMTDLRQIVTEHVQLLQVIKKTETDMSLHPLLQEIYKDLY
UniProt Q8T632, 1-509: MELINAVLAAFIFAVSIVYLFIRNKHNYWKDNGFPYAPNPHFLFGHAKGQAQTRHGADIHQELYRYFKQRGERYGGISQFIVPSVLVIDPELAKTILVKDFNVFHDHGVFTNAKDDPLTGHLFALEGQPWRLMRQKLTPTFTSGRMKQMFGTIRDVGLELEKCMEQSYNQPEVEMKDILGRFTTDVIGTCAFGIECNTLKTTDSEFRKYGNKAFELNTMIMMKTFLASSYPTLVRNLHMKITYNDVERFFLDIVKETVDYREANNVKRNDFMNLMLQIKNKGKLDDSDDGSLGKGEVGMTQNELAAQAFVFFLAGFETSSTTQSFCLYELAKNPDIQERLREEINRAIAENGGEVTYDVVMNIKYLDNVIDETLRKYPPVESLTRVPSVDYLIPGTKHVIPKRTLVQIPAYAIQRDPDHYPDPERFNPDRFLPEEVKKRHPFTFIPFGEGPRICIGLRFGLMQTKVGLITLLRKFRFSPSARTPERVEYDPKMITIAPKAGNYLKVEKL
UniProt P33534, whole entry: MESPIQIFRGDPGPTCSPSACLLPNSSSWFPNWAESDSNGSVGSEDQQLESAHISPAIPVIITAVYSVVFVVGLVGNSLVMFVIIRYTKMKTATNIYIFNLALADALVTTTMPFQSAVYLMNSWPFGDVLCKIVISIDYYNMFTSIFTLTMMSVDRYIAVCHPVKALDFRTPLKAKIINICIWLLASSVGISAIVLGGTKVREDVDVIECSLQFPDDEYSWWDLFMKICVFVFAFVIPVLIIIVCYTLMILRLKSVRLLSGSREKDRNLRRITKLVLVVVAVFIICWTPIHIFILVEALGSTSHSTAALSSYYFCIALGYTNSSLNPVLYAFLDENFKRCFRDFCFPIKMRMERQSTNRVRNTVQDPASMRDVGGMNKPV
UniProt P06276, 29-602 limits assumed: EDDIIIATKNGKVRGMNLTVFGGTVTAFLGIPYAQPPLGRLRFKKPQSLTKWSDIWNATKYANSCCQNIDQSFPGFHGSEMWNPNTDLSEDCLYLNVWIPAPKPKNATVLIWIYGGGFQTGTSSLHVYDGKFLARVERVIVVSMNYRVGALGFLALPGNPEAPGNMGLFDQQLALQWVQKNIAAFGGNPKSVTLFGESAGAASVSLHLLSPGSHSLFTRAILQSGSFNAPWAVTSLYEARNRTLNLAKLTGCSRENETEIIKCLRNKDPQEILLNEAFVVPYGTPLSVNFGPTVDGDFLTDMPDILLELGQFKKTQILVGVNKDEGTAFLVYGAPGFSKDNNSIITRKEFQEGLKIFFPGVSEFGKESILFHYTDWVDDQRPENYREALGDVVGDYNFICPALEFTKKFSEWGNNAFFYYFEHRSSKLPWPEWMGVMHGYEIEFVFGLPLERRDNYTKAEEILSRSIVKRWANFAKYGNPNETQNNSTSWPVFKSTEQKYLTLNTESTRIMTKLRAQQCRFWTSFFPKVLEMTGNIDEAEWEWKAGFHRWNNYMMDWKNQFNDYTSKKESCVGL
UniProt Q15375, whole entry, looked up: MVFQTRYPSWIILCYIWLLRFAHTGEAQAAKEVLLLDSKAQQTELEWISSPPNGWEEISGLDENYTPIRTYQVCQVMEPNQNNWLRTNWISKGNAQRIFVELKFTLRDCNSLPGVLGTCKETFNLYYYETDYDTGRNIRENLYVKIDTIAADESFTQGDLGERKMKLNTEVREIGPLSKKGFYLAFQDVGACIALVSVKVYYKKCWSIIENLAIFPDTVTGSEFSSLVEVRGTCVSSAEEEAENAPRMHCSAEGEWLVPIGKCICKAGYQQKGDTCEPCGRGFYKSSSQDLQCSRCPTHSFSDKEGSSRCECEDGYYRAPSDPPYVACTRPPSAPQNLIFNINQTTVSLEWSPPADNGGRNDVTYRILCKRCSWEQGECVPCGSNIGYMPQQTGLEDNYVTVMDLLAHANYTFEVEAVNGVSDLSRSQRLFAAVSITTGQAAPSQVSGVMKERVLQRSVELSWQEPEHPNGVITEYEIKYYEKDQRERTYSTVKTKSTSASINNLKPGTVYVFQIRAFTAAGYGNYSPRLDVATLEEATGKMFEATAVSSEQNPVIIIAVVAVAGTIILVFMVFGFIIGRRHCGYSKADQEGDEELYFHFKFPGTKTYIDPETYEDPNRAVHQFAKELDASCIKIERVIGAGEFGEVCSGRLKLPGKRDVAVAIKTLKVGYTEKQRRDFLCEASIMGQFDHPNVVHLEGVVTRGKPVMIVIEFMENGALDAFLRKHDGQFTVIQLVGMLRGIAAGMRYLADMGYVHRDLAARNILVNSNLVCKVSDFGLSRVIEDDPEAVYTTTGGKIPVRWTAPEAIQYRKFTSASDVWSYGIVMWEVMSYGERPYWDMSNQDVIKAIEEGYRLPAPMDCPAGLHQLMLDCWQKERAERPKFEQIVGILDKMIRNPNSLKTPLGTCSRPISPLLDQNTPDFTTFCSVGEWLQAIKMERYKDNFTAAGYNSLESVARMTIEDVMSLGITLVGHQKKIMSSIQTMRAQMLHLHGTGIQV
UniProt P9WGR1, whole entry: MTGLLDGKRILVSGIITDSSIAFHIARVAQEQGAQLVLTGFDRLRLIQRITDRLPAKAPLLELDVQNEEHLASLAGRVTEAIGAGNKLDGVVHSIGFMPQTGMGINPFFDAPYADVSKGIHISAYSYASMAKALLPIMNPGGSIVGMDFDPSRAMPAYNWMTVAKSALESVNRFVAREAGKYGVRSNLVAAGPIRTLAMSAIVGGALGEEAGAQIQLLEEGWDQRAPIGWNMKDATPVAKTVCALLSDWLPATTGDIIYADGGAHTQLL
UniProt P21918, whole entry: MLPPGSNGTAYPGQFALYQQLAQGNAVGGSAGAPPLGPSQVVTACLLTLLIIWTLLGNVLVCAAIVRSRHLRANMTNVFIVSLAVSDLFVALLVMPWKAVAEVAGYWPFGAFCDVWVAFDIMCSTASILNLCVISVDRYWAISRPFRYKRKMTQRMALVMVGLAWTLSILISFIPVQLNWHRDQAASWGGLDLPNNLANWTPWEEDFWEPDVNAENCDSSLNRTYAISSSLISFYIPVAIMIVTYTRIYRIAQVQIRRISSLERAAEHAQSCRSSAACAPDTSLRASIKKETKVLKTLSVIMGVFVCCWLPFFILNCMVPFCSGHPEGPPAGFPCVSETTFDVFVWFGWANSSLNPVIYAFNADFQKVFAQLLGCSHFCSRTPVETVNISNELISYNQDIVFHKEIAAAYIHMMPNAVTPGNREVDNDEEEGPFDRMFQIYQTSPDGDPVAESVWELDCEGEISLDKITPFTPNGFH
UniProt P17405, 47-631 limits assumed: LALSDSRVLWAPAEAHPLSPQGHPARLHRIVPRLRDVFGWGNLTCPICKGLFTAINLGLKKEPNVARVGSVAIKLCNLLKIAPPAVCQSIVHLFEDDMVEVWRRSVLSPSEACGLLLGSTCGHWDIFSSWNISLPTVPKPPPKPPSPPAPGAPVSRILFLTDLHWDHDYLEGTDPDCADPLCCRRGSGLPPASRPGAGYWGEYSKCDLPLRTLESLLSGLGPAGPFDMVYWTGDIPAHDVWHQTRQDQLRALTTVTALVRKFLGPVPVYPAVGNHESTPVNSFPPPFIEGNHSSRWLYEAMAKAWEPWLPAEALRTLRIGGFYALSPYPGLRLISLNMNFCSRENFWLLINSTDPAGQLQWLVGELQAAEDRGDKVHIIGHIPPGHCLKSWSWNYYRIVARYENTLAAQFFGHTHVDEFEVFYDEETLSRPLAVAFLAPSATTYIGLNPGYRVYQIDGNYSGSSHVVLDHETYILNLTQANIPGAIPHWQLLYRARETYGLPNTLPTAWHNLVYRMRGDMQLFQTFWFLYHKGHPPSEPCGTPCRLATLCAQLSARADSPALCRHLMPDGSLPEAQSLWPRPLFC
UniProt Q86QH5, 1-679 partner: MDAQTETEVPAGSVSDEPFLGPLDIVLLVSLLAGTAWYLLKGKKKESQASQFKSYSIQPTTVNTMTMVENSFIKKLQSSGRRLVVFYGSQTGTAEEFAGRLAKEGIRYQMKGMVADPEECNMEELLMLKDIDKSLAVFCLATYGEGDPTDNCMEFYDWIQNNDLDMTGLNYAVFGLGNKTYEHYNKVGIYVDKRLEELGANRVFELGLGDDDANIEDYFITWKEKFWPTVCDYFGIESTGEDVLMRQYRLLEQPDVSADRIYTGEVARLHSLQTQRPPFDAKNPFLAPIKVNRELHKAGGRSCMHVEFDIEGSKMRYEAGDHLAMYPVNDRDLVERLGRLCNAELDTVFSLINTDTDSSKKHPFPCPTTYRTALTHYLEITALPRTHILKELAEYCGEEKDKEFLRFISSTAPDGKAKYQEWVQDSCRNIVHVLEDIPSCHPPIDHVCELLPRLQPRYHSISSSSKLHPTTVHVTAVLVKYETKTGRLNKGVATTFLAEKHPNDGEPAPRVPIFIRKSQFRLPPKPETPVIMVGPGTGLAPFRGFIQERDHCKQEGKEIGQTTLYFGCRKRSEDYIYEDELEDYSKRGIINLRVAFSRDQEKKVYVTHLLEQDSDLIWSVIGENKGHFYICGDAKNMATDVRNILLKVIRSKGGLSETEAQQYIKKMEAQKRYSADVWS
UniProt Q86QH4, 1-128 partner: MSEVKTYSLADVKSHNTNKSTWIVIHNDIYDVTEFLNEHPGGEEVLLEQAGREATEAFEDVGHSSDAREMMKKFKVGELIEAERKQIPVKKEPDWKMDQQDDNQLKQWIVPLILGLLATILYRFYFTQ

The EC15 of `CCCCOP(=O)(OCCCC)OCCCC` is reported as 5.86 µM (Peroxisome proliferator-activated receptor gamma (PPARG, Homo sapiens, UniProt P37231); reporter gene, agonist; HEK293; baseline: rosiglitazone maximum).
The Km of `CCOc1ccc2c(c1)Oc1cc(OCC)ccc1C21OC(=O)c2ccccc21` is reported as 0.9 ± 0.09 µM (cyp6p3 (Anopheles gambiae, UniProt Q8T632); substrate; dual plasmid expression).
With `ethoxymethyl salvinorin B` the bias factor was 6.9 (Kappa-type opioid receptor (Oprk1, Mus musculus, UniProt P33534); agonist; mouse receptor; baseline: larger over smaller RAi, vs dynorphin A).
With `CCCC(=O)SCC[N+](C)(C)C` the Km was 15 ± 3 µM (Cholinesterase (BCHE, Homo sapiens, UniProt P06276); substrate; pH 8.0, 22 °C).
`CC#C/C(=N\OC[C@H]1COCCN1)c1ccc2ncnc(Nc3ccc(OCc4cccc(F)c4)c(Cl)c3)c2c1` gave an inhibition of 6.3% (Ephrin type-A receptor 7 (EPHA7, Homo sapiens, UniProt Q15375); kinase activity; 10 µM).
`CSc1nc(Cl)cc(Sc2nnc(-c3cc(C(F)(F)F)cc(C(F)(F)F)c3)[nH]2)n1` has an MIC of 0.9 µg/mL (≈ 1.91 µM) (Escherichia coli; MC4100; together with: NAB7061 4 µg/mL).
With `O=c1[nH]c(CC2CCCCC2)cc(O)c1-c1ccccc1` the melting temperature was 56.3 °C (Enoyl-[acyl-carrier-protein] reductase [NADH] (inhA, Mycobacterium tuberculosis, UniProt P9WGR1); thermal shift; together with: NAD+ ternary complex).
`CN(C(=O)Cc1ccc(Cl)c(Cl)c1)[C@H](CN1CCCC1)c1ccccc1`: “log intrinsic relative activity” 0.7 ± 0.15 (OPRK1; receptor internalization, agonist; concentration not given; baseline: dynorphin A).
The Emax of `U-69593` is reported as 100% (OPRK1; ERK1/2 phosphorylation, agonist, in-cell western; CHO expressing human KOR; baseline: reference agonist).
`CCN1CCN(Cc2ccc(NC(=O)c3ccc(C)c(/C=C/c4cnc5[nH]ccc5c4OC)c3)cc2C(F)(F)F)CC1` — result for “log2 fold change”: -1.38 (FGFR1OP-FGFR1 fusion; kinase-CDC37 interaction, cell-based kinome screen; 5 µM; baseline: vehicle).
The Ki of `CCCN1CCN(c2ccc3c(c2)C2CC3CCN2C(=O)OCc2ccccc2)CC1` (stereo not drawn) is reported as 4.89 µM (D(1B) dopamine receptor (DRD5, Homo sapiens, UniProt P21918); binding, radioligand binding).
The potency ratio of `O=C(O)c1ccccc1[As](=O)(O)O` is reported as 35.3 fold (Sphingomyelin phosphodiesterase (SMPD1, Homo sapiens, UniProt P17405); enzyme activity; pH 5.0; baseline: HMU-PC over sphingomyelin substrate).

A few entries again:
`CSc1nc(Cl)cc(Sc2nnc(-c3cc(C(F)(F)F)cc(C(F)(F)F)c3)[nH]2)n1` has an MIC of 0.9 µg/mL (≈ 1.91 µM) (Escherichia coli; MC4100; together with: NAB7061 4 µg/mL).
